Experimental data collected from several papers.
Each numbered part is a random draw from the data of one study; scales do not carry over between parts. Changes are numbered by the printed parent chain.

Study 1 — method: RNA Bind-n-Seq; molecule type: RNA; matrix: in vitro; tested at: 1 µM; setting: whole 134-nt RNA, ends assumed; added: 150 mM KCl; reference: input library; reading: higher = stronger binding
Target: Ras GTPase-activating protein-binding protein 1, C-terminal RGG region (G3BP1, Homo sapiens, UniProt Q13283)
Chain of UniProt Q13283 (whole entry, looked up): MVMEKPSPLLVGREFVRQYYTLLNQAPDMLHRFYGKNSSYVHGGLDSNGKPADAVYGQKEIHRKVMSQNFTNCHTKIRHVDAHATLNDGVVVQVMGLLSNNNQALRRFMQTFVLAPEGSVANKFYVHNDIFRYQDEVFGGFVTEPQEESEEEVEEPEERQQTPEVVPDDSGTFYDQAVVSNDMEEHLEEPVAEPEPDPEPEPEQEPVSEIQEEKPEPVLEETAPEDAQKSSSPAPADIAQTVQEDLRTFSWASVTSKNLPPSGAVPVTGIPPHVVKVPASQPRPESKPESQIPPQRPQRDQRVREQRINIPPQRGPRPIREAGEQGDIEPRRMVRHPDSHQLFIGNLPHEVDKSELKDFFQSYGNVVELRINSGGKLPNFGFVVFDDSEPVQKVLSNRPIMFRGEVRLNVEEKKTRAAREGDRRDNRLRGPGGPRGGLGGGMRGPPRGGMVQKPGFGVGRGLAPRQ
| Oligonucleotide | log2 enrichment |
| --- | --- |
| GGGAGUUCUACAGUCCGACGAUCUGGGAGGUGGAUUUUGUUUAUUUUUUUAGCUCAUUUCCAGGGGUGGGAAUUUUUUUUUAAUAUGUGUCAUGAAUCAAGUUGUUUUUGAAAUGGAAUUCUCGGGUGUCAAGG | 2.46 |
| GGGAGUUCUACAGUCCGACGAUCCACAGACAACACGCACCCACACAGACACAGAGGGAAGGGGUUGGGAUGGGGACAGGGUGCACAGCAGGGCGGGGUAGGACCCCAGCCAAAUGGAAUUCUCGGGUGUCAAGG | -0.409 |
| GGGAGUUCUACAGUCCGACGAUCAGUCCUGUGCUACACAUCGUAUGUACCGAAUCGGGAAAAAGGGAGGGUUUUUUUGGGAAAGUAUUAUGUUACGCCGUUCGGAUCUGCACUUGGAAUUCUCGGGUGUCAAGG | 0.974 |
| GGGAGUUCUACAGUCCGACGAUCCCUCAAGUCCUGUGCUACACAUCGUAUGUACCGAAUCGGAAAAAGGAGGUGGAAAGUAUUAUGUUACGCCGUUCGGAUCUGCACUUCCAGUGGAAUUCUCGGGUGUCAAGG | -0.681 |
| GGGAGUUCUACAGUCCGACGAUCUCAAGUCCUGUGCUACACAUCGUAUGUACCGAAUCGGGAAAAAGGGAGGGAGGGAAAGUAUUAUGUUACGCCGUUCGGAUCUGCACUUCCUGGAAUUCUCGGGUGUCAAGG | 1.96 |
| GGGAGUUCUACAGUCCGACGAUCUAACUUUAGAGGAGGAUCUGAUGGAUAUGGCAGUGGACGUGGAUUUGGGGAUGGCUAUAAUGGGUAUGGAGGAGGACCUGGAGUUGGCAAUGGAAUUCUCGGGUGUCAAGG | -1.01 |
| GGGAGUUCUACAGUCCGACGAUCCAAGUCCUGUGCUACACAUCGUAUGUACCGAAUCGUGUGUGUGUGUGUGUGUGUGAAAGUAUUAUGUUACGCCGUUCGGAUCUGCACUUCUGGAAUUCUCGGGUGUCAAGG | 1.18 |
| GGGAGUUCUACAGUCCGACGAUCCUCAAGUCCUGUGCUACACAUCGUAUGUACCGAAUCGGGGCCGGCCGGGCCGGGAAAGUAUUAUGUUACGCCGUUCGGAUCUGCACUUCCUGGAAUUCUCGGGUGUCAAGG | -1.33 |
| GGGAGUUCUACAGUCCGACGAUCUCCUGUGCUACACAUCGUAUGUACCGAAUCGGGGCCCCCCGGCCCCCCGGGGCCCCCCGGAAAGUAUUAUGUUACGCCGUUCGGAUCUGCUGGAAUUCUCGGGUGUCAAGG | -0.532 |

Study 2 — target: CCNB2, cyclin fold, Cln2 fusion (human); method: yeast growth competition, sequencing; matrix: yeast; setting: weak parent motif; reference: not given; reading: higher = stronger binding
Starting sequence: CDC25A docking peptide (human); PPHRRRLLFACSP; partner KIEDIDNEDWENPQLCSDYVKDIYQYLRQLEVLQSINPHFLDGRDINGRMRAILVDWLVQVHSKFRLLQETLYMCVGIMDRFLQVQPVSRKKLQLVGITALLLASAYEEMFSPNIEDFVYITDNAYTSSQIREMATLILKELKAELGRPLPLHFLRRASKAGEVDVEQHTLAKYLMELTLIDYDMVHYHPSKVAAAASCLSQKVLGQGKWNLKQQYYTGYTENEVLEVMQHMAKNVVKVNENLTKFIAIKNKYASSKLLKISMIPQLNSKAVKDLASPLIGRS
| Change | normalised enrichment score |
| --- | --- |
| PPHRARLLFACSP [R5A] | 0.739 |
| PPHRRRELFACSP [L7E] | 0.161 |
| PPHRRRLLFACST [P13T] | 0.893 |
| PPHRRRLDFACSP [L8D] | 0.375 |
| PPHRRRLLFSCSP [A10S] | 0.321 |
| PPYRRRLLFACSP [H3Y] | 0.588 |
| PPHRRLLLFACSP [R6L] | 0.443 |
| PPHRDRLLFACSP [R5D] | 0.115 |
| PPHRRRLLFAISP [C11I] | 0.698 |
| PPHRRRLLVACSP [F9V] | 0.538 |
| EPHRRRLLFACSP [P1E] | 0.225 |
| PEHRRRLLFACSP [P2E] | 0.482 |
| PPFRRRLLFACSP [H3F] | 0.993 |
| PPHRRRLLFAYSP [C11Y] | 0.316 |
| PPMRRRLLFACSP [H3M] | 0.538 |
| PPHRRELLFACSP [R6E] | -0.017 |

Study 3 — method: protein binding microarray; molecule type: double-stranded DNA, one strand shown; matrix: in vitro; tested at: not given; reference: not given; reading: higher = stronger binding
Target: Histone acetyltransferase KAT6A, both winged helices, GST fusion (KAT6A, Homo sapiens, UniProt Q92794, residues 1-181)
Setting: 8-mer, flanks averaged, mean of 2 arrays, mostly near background
Construct (chain): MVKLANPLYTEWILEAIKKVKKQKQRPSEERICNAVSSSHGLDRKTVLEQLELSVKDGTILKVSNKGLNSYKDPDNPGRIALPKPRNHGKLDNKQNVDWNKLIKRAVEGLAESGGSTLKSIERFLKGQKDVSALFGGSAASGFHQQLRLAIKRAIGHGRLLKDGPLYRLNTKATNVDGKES
| Oligonucleotide | E-score |
| --- | --- |
| AAAACCAC | 0.0053 |
| GATGAAGC | -0.0939 |
| TATAAATA | 0.0118 |
| CTCAAAAG | 0.00543 |
| GCGCAGTA | 0.251 |
| ATTTGGAG | -0.27 |
| CCACTCTC | -0.0982 |
| ATGCGTCG | 0.192 |
| TCGGTTAA | 0.134 |
| TCAAAACA | 0.00302 |
| TGTCAAAA | -0.0655 |
| CGGACACA | 0.177 |
| ATGGATTG | -0.0129 |
| AAGCGCTC | 0.348 |

Single results of other studies
| Molecule | target | assay | test system | setting | how to read | measurement | result |
| --- | --- | --- | --- | --- | --- | --- | --- |
| PhoQ, residues 284 288 289 292 302 303 SCKMEA | PhoP, residues 12 14 15 18 19 VQALL (Escherichia coli, UniProt P23836) | Sort-seq, refers to: YFP reporter | E. coli | PhoQ-PhoP variant library, added: 10 µM Mg2+ | reference: high Mg2+ state, higher = stronger signaling | fold induction | 1.85 |

Excerpt of the above (study 3):
| Oligonucleotide | E-score |
| --- | --- |
| GATGAAGC | -0.0939 |
| ATGGATTG | -0.0129 |
| CTCAAAAG | 0.00543 |
| ATGCGTCG | 0.192 |
| CCACTCTC | -0.0982 |
